Experimental data of several laboratories.
Every numbered part comes from another study and shows a few of its results, in no order.

Series 1 — technique: aptamer microarray, sandwich; form: DNA with 2'F-ANA; matrix: in vitro; tested at: 200 nM; added: Cy3 exosite-II aptamer, 400 nM; reading: higher = stronger binding; strand: GGTTGGTGTGGTTGG
Target: Prothrombin, mature alpha-thrombin (F2, Homo sapiens, UniProt P00734)
Setting: whole 15-mer aptamer, many near background
| Modification | mean fluorescence intensity |
| --- | --- |
| 2'F-ANA at 2 4 7 9 11 12 13 14 15 | 99.2 a.u. |
| 2'F-ANA at 2 4 6 7 9 10 13 14 15 | 60.4 a.u. |
| 2'F-ANA at 2 3 4 5 6 7 12 15 | 170 a.u. |
| 2'F-ANA at 2 7 11 12 14 15 | 195 a.u. |
| 2'F-ANA at 1 4 6 7 9 13 14 15 | 48.3 a.u. |
| 2'F-ANA at 1 2 4 5 7 8 10 | 53.9 a.u. |
| 2'F-ANA at 2 3 6 10 11 12 13 14 15 | 240 a.u. |
| 2'F-ANA at 6 7 8 9 10 11 14 | 129 a.u. |
| 2'F-ANA at 1 2 3 5 7 8 9 11 14 | 47.3 a.u. |
| 2'F-ANA at 2 5 9 11 12 13 15 | 83.9 a.u. |
| 2'F-ANA at 1 2 4 6 7 8 11 13 | 87.4 a.u. |
| 2'F-ANA at 2 3 6 8 12 15 | 1030 a.u. |
| 2'F-ANA at 4 6 7 8 9 12 13 14 | 91.7 a.u. |
| 2'F-ANA at 1 4 6 7 14 15 | 64.2 a.u. |
| 2'F-ANA at 1 5 6 9 10 11 15 | 50.7 a.u. |
| 2'F-ANA at 3 4 5 6 7 9 10 13 | 48.4 a.u. |
| 2'F-ANA at 1 3 4 5 6 7 10 11 15 | 49.7 a.u. |
| 2'F-ANA at 2 3 6 7 8 10 12 13 14 15 | 224 a.u. |

Series 2 — technique: RNA Bind-n-Seq; form: RNA; matrix: in vitro; tested at: not given; setting: RNA with constant flanks, ends assumed; reference: input RNA pool; reading: higher = stronger binding
Target: RING finger protein unkempt homolog, zinc fingers 1-6, GST-SBP tag (UNK, Homo sapiens, UniProt Q9C0B0, residues 30-357)
UniProt Q9C0B0, sequence (30-357, looked up): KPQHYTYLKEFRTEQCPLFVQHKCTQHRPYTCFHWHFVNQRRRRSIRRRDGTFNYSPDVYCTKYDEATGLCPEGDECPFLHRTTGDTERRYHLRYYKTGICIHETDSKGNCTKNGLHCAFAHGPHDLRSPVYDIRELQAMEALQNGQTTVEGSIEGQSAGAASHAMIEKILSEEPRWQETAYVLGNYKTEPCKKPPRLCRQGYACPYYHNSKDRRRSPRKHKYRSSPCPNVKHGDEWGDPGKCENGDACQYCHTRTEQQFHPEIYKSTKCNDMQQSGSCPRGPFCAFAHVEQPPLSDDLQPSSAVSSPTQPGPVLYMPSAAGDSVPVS
All sequences stand within: GGGAGUUCUACAGUCCGACGAUC … CAACAGAGGAUUGAGCAUCA
| Strand | bound/input enrichment [ratio] |
| --- | --- |
| UGUGAGCAGAAAAGAGGCAAAGAUAAUAAAGCUAUUAUUGCAUCGAAUAUCAUGUACACCGCCGGUCAAUACCCAAGAUUUUUGAGAGCACACUGGAAAUUUUUGAAGACAGUAGUAAAC | 0.23 |
| UCCUGUCUCGAUUUACUCGAAAUGAGUUUAAUCUGGAAAGCAAGAGCACCAUUGGAGCCGAGUUUGCAACAAGAAGCAUCCAGGUUGAUGGAAAAACAAUAAAGGCACAGAUAUGGGACA | 0.241 |
| ACAAAAACAGUCAUUAAAGAAGGUGAAGAACAACUUCAGACUCAGCAUCAGAAAACUUUUACCGGAAAAAUUCCAAUUAUGUUGCGGUCAACUUACUGCCUUUUGAAUGGCUUGACAGAU | 0.14 |
| GUUUUAAUAAAGGCUCUUGAAAUUACAAAAGCAAGUCACGUGAGCCCCCACCCAGGAGACCGCUGGAUUCCUUUACUCAUUAAUGCCGUUGACCAUUGCAUGAACAGAAUUAAGGCGCUC | 0.255 |
| CCUGUCAUUCACAACGGAAGCCAAGGAACAGGAACAAAUGGUUCGGAAAUCAGUGACCGUGAUUAUCAGGCAGAAUACCCUGAUGAGUAUCAUGGCGAGUACCAGGAUGACUACCCCAGA | 0.0987 |
| UCAGAUAAUUCAAGAUUUCCACUUGCAGUUGUAGAAGAACCAAUUACAGUGGAAGUGGCUUUCCGAAACCCUUUGAAAGUUCUACUUUUGUUGACUGAUUUGUCAUUGCUUUGGAAGUUU | 0.161 |
| CAUCAUUAUGCCUAUAAUGUGCCGCUUUGUGAUUGGGCAUUUGCCUACUUUUCUUUCAUAAUCCGUGAUAUAUGCGAUGUAAAACCACUAGUAAAGGUACAUUUUAAUACUUGUUAUUUU | 0.264 |
| GUUCGACUUUGGGAUCAUGCUACUAUGACAGAAGUGAAAUCUCUAAAUUUUAAUAUGUCUGUCCGCCGUAUGGAAUAUAUUCCUGAGGGAGAGAUUUUGGUUAUAACUUAUGGACGAUCU | 0.352 |
| UUUUGAAAACGAACUUCUCUAGCUACACAGAAGUAACAAAAUAUGUUAGUCAGUUUUGUAUUCCGAAAUGUAUUGGUAGCAGGGAUGUUUUCAUAAUUUUCAGAGAAUAUGCAUUCUUCA | 0.101 |
| UAGAUUUGAAUACAAAAUCUGAUACAAUAUGUUAAAGAAUUAAGAACCUGAAGAUGAAGAUUCCGAGCAUAUUUACCUGGAUUUUACUUAUUUGCUAGCAAAAUUCCCCCUUGUCACAGA | 0.88 |
| AGGCCAUUGAUGCAUCUUUCCGACUGUAUGUUCUGUGUAUAAUGCUGUUCUUGGUGCUAAACCGACUUUCUUUCCUCUGAUAUUCAGGAUAAUUUUUCUCUAUACUUCUGUUCACUUGUU | 0.532 |

Series 3 — technique: universal PBM; form: double-stranded DNA, one strand shown; matrix: in vitro; tested at: 600 nM; reading: higher = stronger binding
Target: Sal-like protein 4, full length isoform A (SALL4, Homo sapiens, UniProt Q9UJQ4, residues 1-1053)
UniProt Q9UJQ4, sequence (whole entry, looked up): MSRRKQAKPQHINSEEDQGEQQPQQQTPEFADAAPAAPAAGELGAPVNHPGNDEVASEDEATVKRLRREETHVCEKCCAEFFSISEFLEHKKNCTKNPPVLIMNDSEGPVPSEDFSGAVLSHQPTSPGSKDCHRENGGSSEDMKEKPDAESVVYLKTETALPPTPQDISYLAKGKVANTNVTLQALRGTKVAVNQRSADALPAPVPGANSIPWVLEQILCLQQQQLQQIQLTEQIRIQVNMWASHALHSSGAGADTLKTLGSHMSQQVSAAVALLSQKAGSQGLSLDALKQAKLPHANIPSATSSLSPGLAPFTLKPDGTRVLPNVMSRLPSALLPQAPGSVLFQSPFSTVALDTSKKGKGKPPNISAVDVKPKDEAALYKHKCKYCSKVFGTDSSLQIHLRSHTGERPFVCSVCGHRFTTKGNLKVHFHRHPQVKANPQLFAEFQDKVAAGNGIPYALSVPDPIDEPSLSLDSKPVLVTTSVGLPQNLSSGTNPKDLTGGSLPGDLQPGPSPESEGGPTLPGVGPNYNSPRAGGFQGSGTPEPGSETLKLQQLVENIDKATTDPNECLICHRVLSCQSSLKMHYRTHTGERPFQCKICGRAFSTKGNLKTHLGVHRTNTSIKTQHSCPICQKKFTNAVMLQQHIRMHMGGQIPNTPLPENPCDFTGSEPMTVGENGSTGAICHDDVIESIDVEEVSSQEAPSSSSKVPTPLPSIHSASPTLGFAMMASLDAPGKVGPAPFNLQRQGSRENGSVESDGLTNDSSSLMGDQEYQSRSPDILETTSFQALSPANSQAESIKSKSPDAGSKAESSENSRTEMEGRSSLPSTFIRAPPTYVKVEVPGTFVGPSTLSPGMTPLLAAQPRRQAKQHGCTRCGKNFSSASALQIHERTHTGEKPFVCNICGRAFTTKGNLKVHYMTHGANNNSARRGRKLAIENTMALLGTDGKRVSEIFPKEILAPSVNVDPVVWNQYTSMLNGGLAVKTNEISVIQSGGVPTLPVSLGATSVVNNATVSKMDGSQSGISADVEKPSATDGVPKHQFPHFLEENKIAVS
Setting: 8-mer, flanks averaged, mean of replicates
| Strand | E-score |
| --- | --- |
| GTGAAATA | 0.252 |
| AAGATCTT | 0.211 |
| AATGGGAA | 0.0908 |
| ATCTCAAC | 0.14 |
| GATACGGA | 0.104 |
| AATCCTTG | 0.16 |
| ACTTCTGG | -0.218 |
| CTGATCGC | -0.139 |
| AGACTCTC | -0.193 |
| GTAGCCAC | -0.13 |
| AGGCACGA | -0.157 |
| AGGTTGTG | -0.02 |
| CTTAACGC | -0.0979 |
| GGTAAACC | -0.116 |
| AGAGACGA | 0.0328 |
| GTCTCGCA | -0.218 |
| CACGGCCA | -0.291 |

Series 4 — technique: protein binding microarray; form: double-stranded DNA, one strand shown; matrix: in vitro; tested at: not given; reference: not given; reading: higher = stronger binding
Target: Histone acetyltransferase KAT6A, winged helix 1, GST fusion (KAT6A, Homo sapiens, UniProt Q92794, residues 1-85)
Setting: 8-mer, flanks averaged, mean of 2 arrays, mostly near background
Target sequence (chain): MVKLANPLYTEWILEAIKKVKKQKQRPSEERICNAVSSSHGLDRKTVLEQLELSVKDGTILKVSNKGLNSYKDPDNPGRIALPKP
| Strand | E-score |
| --- | --- |
| ATTTATTA | -0.0174 |
| TATATATA | -0.105 |
| CGGCAACC | 0.369 |
| CCCCCGTA | 0.306 |
| GACGAGCC | 0.0498 |
| TCGTCCCA | -0.179 |
| ACAGACGA | -0.0316 |
| AGAAGTCG | -0.0881 |
| CTACTACA | -0.104 |
| GGTTCGGA | 0.0361 |
| GGACTCTA | -0.0914 |
| GCCGGGCC | 0.318 |
| GGGGTCGA | 0.0131 |
| GCTCTCAA | -0.0185 |
| CTAGACCA | -0.227 |
| AAAGCAGC | 0.00415 |
| CCCACTAG | -0.24 |
| ATAGTGCC | -0.00962 |
| ATAATTCA | -0.0884 |
| GATTGTAC | -0.0572 |
| GGCCATCA | 0.137 |
| ACTCTCGA | -0.262 |
| AAGCGTTA | -0.016 |
| GGAGTCAC | -0.122 |
| GATTTCAA | -0.0478 |

Series 5 — technique: RNA Bind-n-Seq; form: RNA; matrix: in vitro; tested at: 365 nM; reference: no-protein control; reading: higher = stronger binding
Target: RNA binding protein fox-1 homolog 2, RRM domain, GST-SBP tag (RBFOX2, Homo sapiens, UniProt O43251-10, residues 100-194)
Setting: natural RNA segment, single round, ends assumed
All sequences stand within: GGGAGUUCUACAGUCCGACGAUC … UGGAAUUCUCGGGUGCCAA
Construct (chain): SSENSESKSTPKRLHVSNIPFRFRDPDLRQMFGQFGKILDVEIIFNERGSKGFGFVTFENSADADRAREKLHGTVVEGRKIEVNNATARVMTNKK
| Strand | RBNS enrichment (R) |
| --- | --- |
| GUUCCAUUUGACUGUUUGCAUUGAGAUUGCAAUGUGCGCAAUUUUUUUUGUAGUUGUGGCAUCUUGUUGACAUCGAAUAUGACUUUGAUAAUAAAUACCGGUUCCUGAAA | 0.785 |
| CCACCCCUGCCUCUGGGCACCCACCACUCACGGAUGGCAGAACCCAUUCAGUCUCCUACCUUGCAUUCAGGAUGCACAGUUCUCUAAGUCCUGGCCAGCCCCAGCUCAUC | 0.775 |
| CCAAGUUUUGGGUGUGAAAUGUUGCCAGCUUCCUAUAAUGUAAACGGACUUGUUAACCUAACCUAAUUAUGCUCAGUGGACUUCUAUAGAUGGUUUUGAAAAAUGAACUG | 0.586 |
| GAGGCCUAUUGCUGGAGUUCAGAUACUGCAGCUCCUCUUGUUUUUCUGCACUGUGUUUGCCAGCCCUGCCCCCAUCUGAUGGACCAGGCAGUCCUUUAUCUGGAGGGAAA | 0.372 |
| UGUGUGACCUACAAGAUUCCUGGUUGAUACAGUUCAGGUGAGAAACUGUUUGAUUAUAGAAAAGACCCCAGACUCAGAGGGAAGGCUCUCUGGUCUACCUGAGAUCUAUA | 0.402 |
| GCCUCCCUAGCACCUCCCCCUAACCAAAUUCUCCCUGGACCCCAUUCUGAGCUCCCCAUCACCAUGGGAGGUGGGGCCUCAAUCUAAGGCCUUCCCUGUCAGAAGGGGGU | 0.526 |
| CUGGGGGACUUGGGGGCCAUUUCCUUUGCCCUUUUUUUUUGUUGUUAUUCUAUUUUGUACAGACAAGUUGGGAAAACAACAGCGACAAAAAAAAGUCGAGAAACUUUGUA | 0.537 |
| UAGCGCUGUUGAUCCCCUCUCUGUGGCUCCAACCCGUUGGGUCCCUUGCUGCAAACCCAUGAAGCUGGCCCUCAGCUCCCUGACCCCCUGUCCUAGGUCAUGAAGGACAC | 0.397 |
| ACAAAAUCUGAACUCUCAAAAGUCUAUUUUUUUAACUGAAAAUGUAAAUUUAUAAAUAUAUUCAGGAGUUGGAAUGUUGUAGUUACCUACUGAGUAGGCGGCGAUUUUUG | 0.605 |
| GCUUGCUGGCCAGCACUCCUUGGCUCCCCUGCCGAACCACAGACAGACAGUUCAGAUUACCAGGAUAAUCCCAAGCAGUAUCUCCAGUCUCGGCUGGUAGUGGCCCAGAU | 0.795 |
| CUGAAGGAUUACUCGGACAUUACCCCGGGCAAUAGGGAACACUUUUAUUCCUAAACACAGUUACAGACACGCAGUCGAGAUCUUUCUUGAUGCUUGGGAUCUCAAGACUG | 0.482 |
| CAUGCCAACAUGGUUCAUUUCCAAGGGCACCCUAUAACCAGAGAGCACAUUAAUUCCUGUCCUAUAAGAGGGCUGUGGGAAACUGUGUACCUGGAGGUGGUCCAUGCCAG | 0.23 |

Excerpt of the above (series 5):
| Strand | RBNS enrichment (R) |
| --- | --- |
| CUGGGGGACUUGGGGGCCAUUUCCUUUGCCCUUUUUUUUUGUUGUUAUUCUAUUUUGUACAGACAAGUUGGGAAAACAACAGCGACAAAAAAAAGUCGAGAAACUUUGUA | 0.537 |
| CAUGCCAACAUGGUUCAUUUCCAAGGGCACCCUAUAACCAGAGAGCACAUUAAUUCCUGUCCUAUAAGAGGGCUGUGGGAAACUGUGUACCUGGAGGUGGUCCAUGCCAG | 0.23 |
| GAGGCCUAUUGCUGGAGUUCAGAUACUGCAGCUCCUCUUGUUUUUCUGCACUGUGUUUGCCAGCCCUGCCCCCAUCUGAUGGACCAGGCAGUCCUUUAUCUGGAGGGAAA | 0.372 |
| GCCUCCCUAGCACCUCCCCCUAACCAAAUUCUCCCUGGACCCCAUUCUGAGCUCCCCAUCACCAUGGGAGGUGGGGCCUCAAUCUAAGGCCUUCCCUGUCAGAAGGGGGU | 0.526 |
| CCAAGUUUUGGGUGUGAAAUGUUGCCAGCUUCCUAUAAUGUAAACGGACUUGUUAACCUAACCUAAUUAUGCUCAGUGGACUUCUAUAGAUGGUUUUGAAAAAUGAACUG | 0.586 |
| CCACCCCUGCCUCUGGGCACCCACCACUCACGGAUGGCAGAACCCAUUCAGUCUCCUACCUUGCAUUCAGGAUGCACAGUUCUCUAAGUCCUGGCCAGCCCCAGCUCAUC | 0.775 |
| UAGCGCUGUUGAUCCCCUCUCUGUGGCUCCAACCCGUUGGGUCCCUUGCUGCAAACCCAUGAAGCUGGCCCUCAGCUCCCUGACCCCCUGUCCUAGGUCAUGAAGGACAC | 0.397 |
| ACAAAAUCUGAACUCUCAAAAGUCUAUUUUUUUAACUGAAAAUGUAAAUUUAUAAAUAUAUUCAGGAGUUGGAAUGUUGUAGUUACCUACUGAGUAGGCGGCGAUUUUUG | 0.605 |
| UGUGUGACCUACAAGAUUCCUGGUUGAUACAGUUCAGGUGAGAAACUGUUUGAUUAUAGAAAAGACCCCAGACUCAGAGGGAAGGCUCUCUGGUCUACCUGAGAUCUAUA | 0.402 |
| GCUUGCUGGCCAGCACUCCUUGGCUCCCCUGCCGAACCACAGACAGACAGUUCAGAUUACCAGGAUAAUCCCAAGCAGUAUCUCCAGUCUCGGCUGGUAGUGGCCCAGAU | 0.795 |
